{"data": "Earlier results that unrelated publications cite", "note": "Compare with care: the assays were run in different laboratories. ± gives the spread as reported.", "UniProt P47898, sequence (whole entry, looked up)": "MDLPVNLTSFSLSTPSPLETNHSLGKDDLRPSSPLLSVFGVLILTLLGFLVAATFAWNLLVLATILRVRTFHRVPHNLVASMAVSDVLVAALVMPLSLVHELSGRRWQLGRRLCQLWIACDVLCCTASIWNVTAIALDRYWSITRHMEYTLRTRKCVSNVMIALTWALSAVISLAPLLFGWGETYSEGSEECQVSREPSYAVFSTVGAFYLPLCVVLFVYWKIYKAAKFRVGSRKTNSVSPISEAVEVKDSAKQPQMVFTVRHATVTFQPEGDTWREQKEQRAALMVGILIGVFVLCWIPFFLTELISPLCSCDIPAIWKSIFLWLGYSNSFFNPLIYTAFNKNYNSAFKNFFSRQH", "UniProt Q5U3Y7, sequence (whole entry, looked up)": "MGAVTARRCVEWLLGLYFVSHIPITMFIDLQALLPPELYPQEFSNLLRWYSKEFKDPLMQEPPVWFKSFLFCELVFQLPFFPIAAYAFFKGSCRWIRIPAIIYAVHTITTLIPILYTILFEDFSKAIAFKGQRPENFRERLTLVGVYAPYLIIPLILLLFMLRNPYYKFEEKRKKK"}
{"Structure (SMILES)": "Cl.Cl.O=C(Nc1ccc(O[C@H]2CCNC2)c(-c2ccc(F)cc2)c1)c1ccc(O[C@H]2CCNC2)c(-c2ccc(F)c(F)c2)c1", "target or system": "Wnt-activated cancer cells", "test": "cytotoxicity", "how to read": "baseline: Wnt-activated over Wnt-latent cells", "endpoint": "selectivity ratio", "result": "2 to 4 fold"}
{"Structure (SMILES)": "NC(=O)CI", "target or system": "CHO", "test": "DNA damage", "endpoint": "EC50", "result": "34.1 µM"}
{"Structure (SMILES)": "C=C1[C@@H](O)C[C@H]2C(C)(C)[C@@H](Cl)[C@H](Cl)C[C@]2(C)[C@H]1C[C@H](O)[C@H]1CC(=O)NC1=O", "target or system": "P388", "test": "cytotoxicity", "conditions": "literature value", "endpoint": "IC50", "result": "0.0024 µM"}
{"Structure (SMILES)": "N[C@@H](Cc1ccc(N(CCCl)CCCl)cc1)C(=O)O", "target or system": "HPC pulp cells", "endpoint": "CC50", "result": "> 200 µM"}
{"Structure (SMILES)": "CCN(CC)CCCC(C)Nc1c2ccc(Cl)cc2nc2ccc(OC)cc12 (centres unmarked)", "target or system": "A549-ACE2", "endpoint": "CC50", "result": "9.24 µM"}
{"Structure (SMILES)": "NC(=O)CCl", "target or system": "CHO", "test": "DNA damage", "endpoint": "EC50", "result": "1380 µM"}
{"Structure (SMILES)": "C=CCN(CC=C)CCc1c[nH]c2ccc(OC)cc12", "target or system": "Tmem97 (Rattus norvegicus, UniProt Q5U3Y7)", "endpoint": "Ki", "result": "0.253 µM"}
{"Structure (SMILES)": "COc1ccc(CN(C(=O)[C@@H](N)Cc2c(C)cc(C(N)=O)cc2C)[C@@H](C)c2nc(-c3ccccc3)c[nH]2)cc1C(=O)O", "target or system": "OATP1B1", "test": "transport, inhibitor", "conditions": "162-fold plasma level at 100 mg", "endpoint": "inhibition", "result": "32.6%"}
{"Structure (SMILES)": "C=CCN(CC=C)CCc1c[nH]c2ccccc12", "target or system": "HTR5A (Homo sapiens, UniProt P47898)", "test": "binding, [3H]LSD displacement", "endpoint": "Ki", "result": "> 10 µM"}
{"Structure (SMILES)": "CC1(C)CC(O)CC(C)(C)N1[O]", "target or system": "HaCaT", "test": "cytotoxicity", "conditions": "24 h", "endpoint": "IC50", "result": "11400 µM"}
{"Structure (SMILES)": "C[C@@H]1CCO[C@H]2Cn3cc(C(=O)NCc4ccc(F)cc4F)c(=O)c(O)c3C(=O)N12", "target or system": "HOS", "test": "refers to: ATP level", "endpoint": "CC50", "result": "> 250 µM"}
{"Structure (SMILES)": "C=C1[C@@H](OC(C)=O)C[C@H]2C(C)(C)C[C@H](Cl)C[C@]2(C)[C@H]1C[C@H](O)[C@H]1CC(=O)NC1=O", "target or system": "P388", "test": "cytotoxicity", "conditions": "literature value", "endpoint": "IC50", "result": "0.007 µM"}
{"Structure (SMILES)": "CNC(C)C1CCC(N)C(OC2C(N)CC(N)C(OC3OCC(C)(O)C(NC)C3O)C2O)O1 (centres unmarked)", "target or system": "MDCK", "test": "cytotoxicity", "endpoint": "CC50", "result": "780 ± 100 µM"}
{"Structure (SMILES)": "O=[N+]([O-])c1cc[n+]([O-])c2ccccc12", "target or system": "primary human hepatocytes", "test": "DNA damage, comet", "endpoint": "lowest effective concentration", "result": "2.5 µM"}
